Assay results collected from several papers.
A part holds a random share of what one study measured. Substitutions count along the parent as printed.

Sample 1 — method: protein-binding microarray; form: double-stranded DNA, one strand shown; sample: in vitro; tested at: 940 nM top; notes: 60-bp whole probe; added: salmon DNA 0.4 mg/ml; reference: random background probes; direction: higher = stronger binding; measurement: fitted relative affinity; constant ends, left off below: GCCTAGCAC … GTCTTGATTCGCTTGACGCTGCTG
Target: Interferon regulatory factor 5, full length, phosphomimetic (IRF5, Homo sapiens, UniProt Q13568-2, residues 1-514, S451D/S453D/S456D/S462D)
TTAGGACTGCCACTGCTTTAGTGCTAG: -0.327 z-score
TTACGTTTCCTTATCCTTTAGTGCTAG: 2.23 z-score
TCAAAATTATCTTTAATACTGTGCTAG: 0.351 z-score
GACGGTTGCGGTTTCGGGACGTGCTAG: 3.83 z-score
GACGAACTTAGTCTCGAGACGTGCTAG: 1.25 z-score
TCAGATGTCAAACTCACACTGTGCTAG: -0.464 z-score
TCATGCTTGTGTCTGGGACTGTGCTAG: -0.407 z-score
CTAGGTTTCGGGTTTCGGTTAGTGCTA: 10.4 z-score
GATGGTTTCCTACTGCTGACGTGCTAG: 0.876 z-score
TTAGGACTGGACACGGGGTTAGTGCTA: -0.178 z-score
TCATGTATGAGCCTCTGACTGTGCTAG: -0.12 z-score
GACGATTTCAGTATCGATACGTGCTAG: 6.3 z-score
ACCTATAGGTTGTTTCTAATAGTGCTA: 0.288 z-score
TTAGCTATCAGACTGGATTAGTGCTAG: -0.612 z-score
TTTGAACTGGGGTATCGATTAGTGCTA: 3.08 z-score
GACGGTATCCGACTGGGGACGTGCTAG: -0.319 z-score
TTAGAACTAAGTATCGATTAGTGCTAG: 3.93 z-score
TTAGGTATCGGGTTTCAGTTAGTGCTA: 6.17 z-score
TCATATTTAAGGCATCTGACTGTGCTA: 0.0415 z-score

Sample 2 — method: RNA Bind-n-Seq; form: RNA; sample: in vitro; tested at: 365 nM; reference: no-protein control; direction: higher = stronger binding; measurement: RBNS enrichment (R)
Target: RNA binding protein fox-1 homolog 2, RRM domain, GST-SBP tag (RBFOX2, Homo sapiens, UniProt O43251-10, residues 100-194)
Notes: natural RNA segment, single round, ends assumed
Constant ends, left off below: GGGAGUUCUACAGUCCGACGAUC … UGGAAUUCUCGGGUGCCAA
GCAAGUGGCUCUCCCCAUUACCUUCUCAAGACCUCAGUGGGAGCACCAGCCAAUGGUACCAUCGGCUGGGCUGCCAGGUACCCUGGGCCUGGCGCUGCAGACCUGAGCUG: 0.425
ACCGUCCUCUUUUUCCAUCAUAAUUCUAAUCUAACAAUGGAAGAUUUGCCCAUUUACACUUUUGAGACUUUUUGGUGGAUGUAAAUAACCCCAUUCUUUGCUUGAACACA: 0.435
GAUGUAUGAACAAAAAAAAAUCAAUAAAAGAAUAUACUCUUUUCAUGGACUGUAGUAGUAUGUGAAUGUUACAUUUAGUUUGAACAGUUCUGAAGUAUAAGGAGAAAUGU: 5.25
AUAGCUGUUCUGUCUCCUGGAGACCAAAGCUGGCUUGGAGGAAAAAAUGAUGCCCACAGUCUUGGGAAAAAUACCUGCUGGGAAGGAUGGCAUCUUUUCUGCGCGGUGGG: 0.647
GUGAUGGUGGGGAGAUGAUGGGCUAAACAGGCAACUUUUCAAAAACACAGCUAUCAUAGAAAAGAAACUUGCCUCAUGUAAACUGGAUUGAGAAAUUCUCAGUGAUUCUG: 0.474
CAUUGCAUAUCAAUCAGUUAAUACACUUAAUGUUGCAUGAGUGAUAUUUUGGUCUGGGUUUCCUCUUAAGAUUUUAGUUUGUCUGAAUUAAGGAAAAAUGUUUUUAAUAU: 1.36
UCUUAGUCAACCUCUGUAGAAAGUUUUCUCUAUGAAAGUAAAGCUGUUUGAGAAAUUAUUUUUUUACAGAUCUUUAUAAAAAAUAAACAUCUUUUGAUUGCUUGGAUUUA: 0.815
GCCAAUCUGGCCCUUACACACUCAGGCCUGUGCCCACUCCCUAUCUCCUUCCCACCCCUACACACACACUCCCUGCUUGCAGGAGGCCAAACUGUCCCUCCCUUGCUGAA: 0.678

Sample 3 — method: aptamer microarray, sandwich; form: DNA with 2'F-ANA; sample: in vitro; tested at: 200 nM; added: Cy3 exosite-II aptamer, 400 nM; direction: higher = stronger binding; measurement: mean fluorescence intensity; oligonucleotide: GGTTGGTGTGGTTGG
Target: Prothrombin, mature alpha-thrombin (F2, Homo sapiens, UniProt P00734)
Notes: whole 15-mer aptamer, many near background
2'F-ANA at 2 5 8 11 15: 97.3 a.u.
2'F-ANA at 3 4 5 8 9 10 11 12 13: 53.9 a.u.
2'F-ANA at 1 2 3 7 8 12 14 15: 127 a.u.
2'F-ANA at 3 5 6 7 8 10 11 14: 51.2 a.u.
2'F-ANA at 3 5 6 7 15: 107 a.u.
2'F-ANA at 2 4 5 10 13 15: 70.8 a.u.
2'F-ANA at 1 2 5 6 7 9 11: 82.6 a.u.
2'F-ANA at 1 3 8 10 13 14: 64 a.u.
2'F-ANA at 1 3 5 9 11 12 13 14: 57.9 a.u.
2'F-ANA at 4 5 6 8 12: 167 a.u.
2'F-ANA at 5 11 13: 56.6 a.u.
2'F-ANA at 1 2 4 5 7 9 11 12: 104 a.u.
2'F-ANA at 4 5 6 7 9 11 13 14: 44 a.u.
2'F-ANA at 2 3 4 5 8 9 12: 324 a.u.
2'F-ANA at 1 2 3 4 6 7 9 10 12 13 15: 64.6 a.u.
2'F-ANA at 4 5 6 8 10 11 12 13 14: 49.5 a.u.
2'F-ANA at 2 3 4 5 8 9 10 11 13 14 15: 51.4 a.u.
2'F-ANA at 6 7 8 11 14 15: 189 a.u.
2'F-ANA at 2 6 11 12 13 14 15: 120 a.u.
2'F-ANA at 1 5 7 8 11 12 14 15: 47.6 a.u.
2'F-ANA at 3 4 7 10 12 14 15: 240 a.u.
2'F-ANA at 1 2 3 4 5 7 9 11 12 13 14 15: 46.6 a.u.
2'F-ANA at 3 6 8 10 11 12 13 15: 449 a.u.
2'F-ANA at 2 4 6 7 8 10 11 12: 112 a.u.
2'F-ANA at 2 4 6 8 10 11 13 14 15: 62.1 a.u.

Sample 4 — target: CCNB1, cyclin fold, Cln2 fusion (human); method: yeast growth competition, sequencing; sample: yeast; notes: weak parent motif; reference: not given; direction: higher = stronger binding; measurement: normalised enrichment score
Parent: GMNC docking peptide (human); KNAKRNLSSEFAN
KNAKRNLSTEFAN [S9T]: 0.225
KPAKRNLSSEFAN [N2P]: 0.611
KNAKRNLSSEFKN [A12K]: 0.00658
KNAKRNLWSEFAN [S8W]: 0.0959
KNMKRNLSSEFAN [A3M]: 0.384
KNAKRNLSSHFAN [E10H]: 0.329
KNAKRNLSSETAN [F11T]: 0.174
KNAKGNLSSEFAN [R5G]: 0.196
KNAKRNLSSEFNN [A12N]: 0.409
KNAKRNLSSDFAN [E10D]: -0.134
KNTKRNLSSEFAN [A3T]: 0.363
KNAKMNLSSEFAN [R5M]: 0.263
KNAKINLSSEFAN [R5I]: 0.48
KNAKRELSSEFAN [N6E]: 0.499
KNAKRNLSAEFAN [S9A]: 0.248
KNAKRNLSSEFRN [A12R]: 0.0898
KNAKRNLCSEFAN [S8C]: -0.215
KNATRNLSSEFAN [K4T]: 0.0665
KNAKRNLSSEFEN [A12E]: 0.241
KNPKRNLSSEFAN [A3P]: -0.591
KNAKRNLSHEFAN [S9H]: 0.115
KNAKRNLSSEEAN [F11E]: -0.0212
KGAKRNLSSEFAN [N2G]: 0.147
KNAKRNRSSEFAN [L7R]: 0.419
KNAHRNLSSEFAN [K4H]: -0.0447
